# Experimental data gathered from unrelated publications.
# Protocols differ between the studies behind these lines. ± marks the error that the study gave.
# cqsS: CAI-1 autoinducer sensor kinase/phosphatase CqsS (cqsS, Vibrio cholerae serotype O1, UniProt Q9KM66)
# Chain of UniProt P21554 (whole entry, unmodified, looked up): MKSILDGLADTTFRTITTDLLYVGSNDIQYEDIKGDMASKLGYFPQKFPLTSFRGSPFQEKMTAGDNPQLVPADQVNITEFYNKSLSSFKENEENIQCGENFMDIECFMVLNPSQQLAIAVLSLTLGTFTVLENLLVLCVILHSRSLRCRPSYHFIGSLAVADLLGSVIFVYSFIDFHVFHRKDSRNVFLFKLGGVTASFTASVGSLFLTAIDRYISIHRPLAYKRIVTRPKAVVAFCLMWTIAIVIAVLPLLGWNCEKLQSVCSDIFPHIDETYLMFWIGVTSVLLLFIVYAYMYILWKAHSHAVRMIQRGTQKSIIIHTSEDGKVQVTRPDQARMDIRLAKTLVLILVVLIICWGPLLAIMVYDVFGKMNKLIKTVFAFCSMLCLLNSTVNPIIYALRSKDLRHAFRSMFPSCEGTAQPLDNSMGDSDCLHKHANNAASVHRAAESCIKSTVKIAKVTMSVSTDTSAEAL
# Chain of UniProt Q0P543 (whole entry, looked up): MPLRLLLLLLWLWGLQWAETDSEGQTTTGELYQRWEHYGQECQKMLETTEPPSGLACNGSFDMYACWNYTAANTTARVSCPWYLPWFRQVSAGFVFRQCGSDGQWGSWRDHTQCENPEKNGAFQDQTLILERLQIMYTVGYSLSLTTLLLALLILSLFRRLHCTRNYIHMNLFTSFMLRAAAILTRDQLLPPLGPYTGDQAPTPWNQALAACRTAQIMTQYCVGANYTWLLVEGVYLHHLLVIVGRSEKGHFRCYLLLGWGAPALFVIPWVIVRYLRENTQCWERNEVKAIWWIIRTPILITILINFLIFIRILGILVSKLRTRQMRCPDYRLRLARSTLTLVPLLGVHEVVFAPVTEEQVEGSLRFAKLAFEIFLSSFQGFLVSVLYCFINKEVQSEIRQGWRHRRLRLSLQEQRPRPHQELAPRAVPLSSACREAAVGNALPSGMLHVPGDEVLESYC
# Chain of UniProt Q9BYF1 (whole entry, looked up): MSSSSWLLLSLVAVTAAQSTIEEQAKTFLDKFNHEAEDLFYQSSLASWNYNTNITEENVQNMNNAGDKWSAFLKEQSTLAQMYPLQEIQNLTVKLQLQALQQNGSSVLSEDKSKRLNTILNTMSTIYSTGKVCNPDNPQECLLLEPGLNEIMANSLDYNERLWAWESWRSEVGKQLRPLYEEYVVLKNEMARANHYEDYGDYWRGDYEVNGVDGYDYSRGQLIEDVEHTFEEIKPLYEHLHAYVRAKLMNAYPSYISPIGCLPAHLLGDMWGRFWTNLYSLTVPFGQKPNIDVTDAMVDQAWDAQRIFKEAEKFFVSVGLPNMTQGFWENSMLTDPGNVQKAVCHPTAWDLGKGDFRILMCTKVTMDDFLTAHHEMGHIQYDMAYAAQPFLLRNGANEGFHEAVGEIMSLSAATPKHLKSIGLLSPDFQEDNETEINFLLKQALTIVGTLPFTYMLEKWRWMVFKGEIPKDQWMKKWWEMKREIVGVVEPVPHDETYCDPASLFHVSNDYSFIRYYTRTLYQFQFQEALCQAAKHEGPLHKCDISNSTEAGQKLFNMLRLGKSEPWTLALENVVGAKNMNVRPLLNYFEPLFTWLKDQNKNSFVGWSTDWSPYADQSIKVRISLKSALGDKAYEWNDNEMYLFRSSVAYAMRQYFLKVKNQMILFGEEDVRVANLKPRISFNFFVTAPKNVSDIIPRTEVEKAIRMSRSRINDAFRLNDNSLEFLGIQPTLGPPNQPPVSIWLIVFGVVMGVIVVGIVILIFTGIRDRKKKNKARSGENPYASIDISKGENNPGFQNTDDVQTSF
# Chain of UniProt P46098 (whole entry, looked up): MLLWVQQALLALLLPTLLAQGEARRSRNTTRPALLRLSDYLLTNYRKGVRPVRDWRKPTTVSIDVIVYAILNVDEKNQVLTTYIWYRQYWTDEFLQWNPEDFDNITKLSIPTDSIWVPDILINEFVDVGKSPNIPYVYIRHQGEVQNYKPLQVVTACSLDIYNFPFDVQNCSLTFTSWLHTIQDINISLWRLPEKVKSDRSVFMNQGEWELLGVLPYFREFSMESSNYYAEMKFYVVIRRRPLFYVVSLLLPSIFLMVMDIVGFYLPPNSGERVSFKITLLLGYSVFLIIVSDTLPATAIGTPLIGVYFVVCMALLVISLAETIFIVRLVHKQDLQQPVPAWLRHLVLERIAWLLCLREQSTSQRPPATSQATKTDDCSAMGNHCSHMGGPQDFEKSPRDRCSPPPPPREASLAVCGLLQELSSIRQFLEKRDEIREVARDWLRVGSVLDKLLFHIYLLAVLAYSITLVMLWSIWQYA
# Chain of UniProt Q13546 (whole entry, looked up): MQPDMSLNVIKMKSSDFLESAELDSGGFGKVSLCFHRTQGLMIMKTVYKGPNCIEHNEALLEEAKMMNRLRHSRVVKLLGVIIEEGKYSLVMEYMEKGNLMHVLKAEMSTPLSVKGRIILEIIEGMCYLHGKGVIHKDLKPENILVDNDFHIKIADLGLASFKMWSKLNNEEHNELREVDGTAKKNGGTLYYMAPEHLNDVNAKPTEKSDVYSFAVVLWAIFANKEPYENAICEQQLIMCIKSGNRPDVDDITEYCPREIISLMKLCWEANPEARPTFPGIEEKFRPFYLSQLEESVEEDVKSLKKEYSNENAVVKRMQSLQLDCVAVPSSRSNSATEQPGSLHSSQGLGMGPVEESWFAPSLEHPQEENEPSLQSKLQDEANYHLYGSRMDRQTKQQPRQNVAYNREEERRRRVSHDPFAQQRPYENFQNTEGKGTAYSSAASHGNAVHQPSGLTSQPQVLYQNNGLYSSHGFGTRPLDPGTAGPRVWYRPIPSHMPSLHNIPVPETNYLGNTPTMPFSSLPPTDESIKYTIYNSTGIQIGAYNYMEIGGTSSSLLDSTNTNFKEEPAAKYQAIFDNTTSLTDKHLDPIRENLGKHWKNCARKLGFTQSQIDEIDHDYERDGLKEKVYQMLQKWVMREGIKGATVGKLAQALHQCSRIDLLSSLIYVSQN
# Chain of UniProt P40337 (whole entry, looked up): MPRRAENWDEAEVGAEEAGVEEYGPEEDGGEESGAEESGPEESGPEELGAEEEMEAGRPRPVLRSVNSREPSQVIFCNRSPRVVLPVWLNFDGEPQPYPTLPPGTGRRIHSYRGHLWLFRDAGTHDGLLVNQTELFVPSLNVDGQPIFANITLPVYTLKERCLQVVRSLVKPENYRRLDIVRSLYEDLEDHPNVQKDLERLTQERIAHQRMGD
# Chain of UniProt P07148 (whole entry, looked up): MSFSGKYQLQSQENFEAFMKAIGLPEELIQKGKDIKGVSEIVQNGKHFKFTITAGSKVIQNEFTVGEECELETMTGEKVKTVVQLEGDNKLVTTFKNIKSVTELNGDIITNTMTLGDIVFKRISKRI
# Chain of UniProt P34972 (whole entry, looked up): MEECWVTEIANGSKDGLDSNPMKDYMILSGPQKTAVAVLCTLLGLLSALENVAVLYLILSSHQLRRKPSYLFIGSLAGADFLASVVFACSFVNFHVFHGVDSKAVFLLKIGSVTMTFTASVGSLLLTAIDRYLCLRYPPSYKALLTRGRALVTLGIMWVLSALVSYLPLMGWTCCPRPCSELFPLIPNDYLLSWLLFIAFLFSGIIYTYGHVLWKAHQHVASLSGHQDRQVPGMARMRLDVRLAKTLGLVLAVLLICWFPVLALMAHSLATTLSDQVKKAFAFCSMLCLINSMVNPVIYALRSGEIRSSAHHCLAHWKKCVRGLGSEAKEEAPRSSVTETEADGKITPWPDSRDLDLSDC
# Chain of UniProt P07445 (whole entry, unmodified, looked up): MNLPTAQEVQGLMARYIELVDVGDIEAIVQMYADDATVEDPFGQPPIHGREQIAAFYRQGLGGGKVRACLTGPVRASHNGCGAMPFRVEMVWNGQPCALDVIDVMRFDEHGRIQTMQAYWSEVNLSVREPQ
# Chain of UniProt P07550 (whole entry, unmodified, looked up): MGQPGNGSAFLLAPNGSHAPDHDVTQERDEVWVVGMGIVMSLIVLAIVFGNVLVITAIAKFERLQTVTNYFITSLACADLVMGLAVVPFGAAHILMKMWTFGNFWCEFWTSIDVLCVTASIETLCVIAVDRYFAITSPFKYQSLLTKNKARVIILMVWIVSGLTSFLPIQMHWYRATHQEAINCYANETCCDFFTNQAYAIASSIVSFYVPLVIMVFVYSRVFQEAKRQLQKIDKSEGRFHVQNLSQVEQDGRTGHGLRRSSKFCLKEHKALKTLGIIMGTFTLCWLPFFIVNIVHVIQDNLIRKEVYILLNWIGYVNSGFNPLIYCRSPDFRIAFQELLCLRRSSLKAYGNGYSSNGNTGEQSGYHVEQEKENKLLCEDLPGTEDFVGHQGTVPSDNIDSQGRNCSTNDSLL
SMILES,target,assay,test system,setting,measurement,value
C/C=C(\N)C(=O)CCCCCCCCC,cqsS,agonist,"Vibrio cholerae, wild type",,EC50,0.004 ± 0.003 µM
CC1(C)OC2OC(C(CCO)NC(=O)Nc3cccc(NC(=O)NC(CCO)C4OC5OC(C)(C)OC5C4OCc4ccccc4)c3)C(OCc3ccccc3)C2O1 (stereo not drawn),"DNA ligase A (Mycobacterium tuberculosis, UniProt P9WNV1)","enzyme activity, inhibitor",,,Ki,98.3 µM
Nc1ncnc2c1c(-c1ccc3c(c1)CCN3C(=O)Cc1cccc(OC(F)(F)F)c1)cn2CCCNC(=O)CCc1ccc2n1[B-](F)(F)[N+]1=C(c3ccc[nH]3)C=CC1=C2,"Receptor-interacting serine/threonine-protein kinase 1 (RIPK1, Homo sapiens, UniProt Q13546)","binding, TR-FRET",,,Kd,0.443 µM
"CCOC(=O)C1C(OC(c2ccc(Cl)cc2)c2ccc(Cl)cc2)CC2CCC1N2C (single isomer, unassigned)","Sigma-2 receptor/TMEM97 (Cavia porcellus, UniProt H0V073)",radioligand binding,,"racemate, added: [3H]DTG, (+)-pentazocine mask",Ki,0.333 µM
C/C=C(\N)C(=O)CCCCCCCC,cqsS,"bioluminescence, agonist",Vibrio cholerae,,EC50,0.0026 µM
C=C[C@]1(C)CC[C@@]2(C)c3cc(O)c(O)c(C)c3CC[C@@H]2C1,"Bifunctional protein GlmU (glmU, Mycobacterium tuberculosis, UniProt P9WMN3)",surface plasmon resonance,,,Kd,15.7 µM
C#CCOc1ccccc1-c1nc2ccc(Cl)cc2c(=O)o1,"Serine protease Rv3671c (Mycobacterium tuberculosis, UniProt P9WHR9)",,,,Ki,0.262 µM
CC[C@H](C)[C@H](NC(=O)CNC(=O)[C@@H](NC(=O)[C@@H](N)[C@@H](C)O)[C@@H](C)O)C(=O)NCC(=O)N[C@@H](Cc1ccc(O)cc1)C(=O)N[C@@H](CCC(N)=O)C(=O)N1CCC[C@H]1C(=O)N[C@@H](Cc1ccc(O)cc1)C(=O)N[C@@H](CCCNC(=N)N)C(=O)N[C@H](C(=O)N[C@H](C(N)=O)C(C)C)C(C)C,"Angiotensin-converting enzyme 2 (ACE2, Homo sapiens, UniProt Q9BYF1)",,,,Kd,672 ± 168 µM
Nc1ncnc2c1ncn2[C@@H]1O[C@H](COP(=O)(O)OP(=O)(O)OP(=O)(O)O)[C@@H](O)[C@H]1O,"ATP phosphoribosyltransferase (Mycobacterium tuberculosis, UniProt P9WMN1)",pre-steady-state stopped-flow,,"pH 8.5, added: PRPP 1.5 mM",Kd,47.2 ± 10.3 µM
CCCCCn1cc(C(=O)c2ccc3ccccc3c2)c2ccccc21,"Cannabinoid receptor 1 (CNR1, Homo sapiens, UniProt P21554, L193I)","G protein activation, agonist, BRET",,,EC50,0.112 µM
CC1=C[C@H]2c3c(O)cc(CCc4ccccc4)cc3OC(C)(C)[C@@H]2CC1,"Cannabinoid receptor 2 (CNR2, Homo sapiens, UniProt P34972)","GTPγS binding, agonist, radiometric",,cell membranes,EC50,0.478 µM
CC1=CC(C)=[N+]2C1=Cc1ccc(CCC(=O)NCCOCCOCCOCCOCC(=O)N[C@H](C(=O)N3C[C@H](O)C[C@H]3C(=O)NCc3ccc(-c4scnc4C)cc3)C(C)(C)C)n1[B-]2(F)F,"von Hippel-Lindau disease tumor suppressor, with elongin B/C (VHL, Homo sapiens, UniProt P40337)","binding, TR-FRET",,"210 min, added: BODIPY FL VH032",Kd,0.00296 µM
CC(Cc1ccc(O)cc1)NCC(O)c1ccc(O)c(O)c1 (stereo not drawn),"Beta-2 adrenergic receptor, V2R C-tail chimera (ADRB2, Homo sapiens, UniProt P07550)",agonist,,concentration not given,EC50,0.01 µM
C/C=C(\N)C(=O)CCCCCCCCCCCC,cqsS,"bioluminescence, agonist",Vibrio cholerae,,EC50,> 5 µM
C[N+](C)(C)CCc1c[nH]c2cccc(O)c12,"5-hydroxytryptamine receptor 3A (HTR3A, Homo sapiens, UniProt P46098)","ligand displacement, radioligand",,cell membranes,Ki,> 10 µM
CC[C@H](C)[C@H](NC(=O)[C@H](CO)NC(=O)[C@H](Cc1ccc(O)cc1)NC(=O)[C@H](CC(=O)O)NC(=O)[C@H](CO)NC(=O)[C@@H](NC(=O)[C@H](Cc1ccccc1)NC(=O)[C@@H](NC(=O)CNC(=O)[C@@H]1CCCN1C(=O)[C@H](C)NC(=O)[C@@H](N)Cc1ccc(O)cc1)[C@@H](C)O)[C@@H](C)CC)C(=O)N[C@@H](C)C(=O)N[C@@H](CCSC)C(=O)N[C@@H](CC(=O)O)C(=O)N[C@@H](CCCCN)C(=O)N[C@H](C(=O)N[C@@H](Cc1c[nH]cn1)C(=O)N[C@@H](CCC(N)=O)C(=O)N[C@@H](CCC(N)=O)C(=O)N[C@@H](CC(=O)O)C(=O)N[C@@H](Cc1ccccc1)C(=O)N[C@H](C(=O)N[C@@H](CC(N)=O)C(=O)N[C@@H](Cc1c[nH]c2ccccc12)C(=O)N[C@@H](CC(C)C)C(=O)N[C@@H](CC(C)C)C(=O)N[C@@H](C)C(=O)N[C@@H](CCC(N)=O)C(=O)N[C@@H](CCCCN)C(=O)NCC(=O)N[C@@H](CCCCN)C(=O)N[C@@H](CCCCN)C(=O)N[C@@H](CC(N)=O)C(=O)N[C@@H](CC(=O)O)C(=O)N[C@@H](Cc1c[nH]c2ccccc12)C(=O)N[C@@H](CCCCN)C(=O)N[C@@H](Cc1c[nH]cn1)C(=O)N[C@@H](CC(N)=O)C(=O)N[C@H](C(=O)N[C@H](C(=O)N[C@@H](CCC(N)=O)C(=O)O)[C@@H](C)O)[C@@H](C)CC)C(C)C)[C@@H](C)CC,"Gastric inhibitory polypeptide receptor (Mus musculus, UniProt Q0P543)",agonist,,,EC50,0.092 µM
CCCCCc1cc(O)c2c(c1)OC(C)(C)[C@@H]1CCC(CO)=C[C@@H]21,"Fatty acid-binding protein, liver (FABP1, Homo sapiens, UniProt P07148)","ligand displacement, fluorescence",,,EC50,1.5 µM
O=C(N[C@@H]1CN(CCCc2ccccc2)C[C@H]1CO)c1ccccc1,"Outer membrane protein OmpV (ompV, Vibrio cholerae serotype O1, UniProt P06111)",,,,Kd,0.123 µM
N#Cc1c(N)nc(SCc2ncc[nH]2)c(C#N)c1-c1ccc(O)cc1,"Adenosine receptor A2a (ADORA2A, Homo sapiens, UniProt P29274)",binding,,,Ki,0.013 µM
CC12CCC3C(CC=C4CC(O)CCC43C)C1CCC2=O (stereo not drawn),"Steroid Delta-isomerase (Pseudomonas putida, UniProt P07445, D40N)",tryptophan fluorescence quenching,,10% DMSO,Kd,0.3 µM
Cc1cc(O)cc(-c2nc(Nc3cc(C(F)(F)F)cc(C(F)(F)F)c3)ncc2-c2ccnc(-c3ccc(C#N)cc3)c2)c1,"Proto-oncogene tyrosine-protein kinase Src (SRC, Homo sapiens, UniProt P12931)",biochemical,,,EC50,> 100 µM
CC[C@H](C)[C@@H]1NC(=O)[C@@H]2CCCN2C(=O)[C@H](CCCNC(=N)N)NC(=O)[C@H](CCC(=O)O)NC(=O)[C@@H]2CSSC[C@@H]3NC(=O)[C@H](CCCCN)NC(=O)[C@H](CCCCN)NC(=O)[C@H](CC(N)=O)NC(=O)[C@H](CC(C)C)NC(=O)[C@H](CCCNC(=N)N)NC(=O)[C@H](CC(N)=O)NC(=O)[C@@H](NC(=O)CN)CSSC[C@H](NC(=O)[C@H](CSSC[C@@H](C(=O)N[C@@H](CCCNC(=N)N)C(=O)N4CCC[C@H]4C(=O)N[C@@H](CC(=O)O)C(=O)N[C@H](C(=O)NCC(=O)N4CCC[C@H]4C(=O)O)C(C)C)NC(=O)[C@H](Cc4ccc(O)cc4)NC(=O)[C@H](CCSC)NC(=O)[C@H](Cc4ccc(-n5cc(CN)nn5)cc4)NC(=O)[C@H](CCCCN)NC(=O)[C@H](Cc4c[nH]c5ccccc45)NC(=O)CNC1=O)NC(=O)[C@H](CC(=O)O)NC(=O)[C@H](C)NC(=O)[C@H](CC(=O)O)NC(=O)[C@H](CO)NC(=O)[C@H](CC(N)=O)NC3=O)C(=O)N[C@@H](C)C(=O)N[C@@H](CC(N)=O)C(=O)N[C@@H](CCCCN)C(=O)N[C@@H](CCC(=O)O)C(=O)N[C@@H](CCCCN)C(=O)N2,"E3 ubiquitin-protein ligase ZNRF3 (ZNRF3, Homo sapiens, UniProt Q9ULT6)",binding,,pH 7.4,Kd,0.055 ± 0.0065 µM
CCC[C@H](NC(=O)[C@H](CC(C)C)NC(=O)OCc1ccccc1)C(=O)C(=O)NCc1ccccn1,"Replicase polyprotein 1ab, main protease (Human coronavirus OC43, UniProt P0C6X6)","enzyme activity, inhibitor",,,Ki,0.43 µM
CCCCCCc1ccc(Oc2ccccc2Br)c(O)c1,"Enoyl-[acyl-carrier-protein] reductase [NADH] (inhA, Mycobacterium tuberculosis, UniProt P9WGR1)","inhibitor, progress curve analysis",,"20 °C, final EI* complex",Ki,0.034 ± 0.001 µM

# Repeated from above:
SMILES,target,assay,test system,setting,measurement,value
Nc1ncnc2c1ncn2[C@@H]1O[C@H](COP(=O)(O)OP(=O)(O)OP(=O)(O)O)[C@@H](O)[C@H]1O,"ATP phosphoribosyltransferase (Mycobacterium tuberculosis, UniProt P9WMN1)",pre-steady-state stopped-flow,,"pH 8.5, added: PRPP 1.5 mM",Kd,47.2 ± 10.3 µM
